# Experimental data gathered from unrelated publications.
# Compare with care: the assays were run in different laboratories. Several values in a cell are separate wells, animals, samples, runs or records. Numbers after ± are the reported error.
Compound,cell line,test,conditions,how to read,measurement,value
CC[C@H](C)n1cc(C)c2c(C(=O)NCc3c(C)cc(C)[nH]c3=O)cc(-c3ccc(N4CCNCC4)nc3)cc21,HBL-1,,"1 µM, 120 h",,viability,123%
O=c1ncn2nc(Sc3ccc(F)cc3F)ccc2c1-c1c(Cl)cccc1Cl,iCell cardiomyocytes hiPSC-derived,impedance,"concentration not given, 2 h",relative to: vehicle,beat amplitude,94.1%
O=C(/C=C/C=C/C=C/C1CCCCC1)NC1=C[C@@](O)(/C=C/C=C/C=C/C(=O)NC2=C(O)CCC2=O)[C@@H]2O[C@@H]2C1=O,HCC4006,"cell growth, CellTiter-Glo",78 h,,GI50,15.2 µM
CCn1cc(-c2cc(Cn3ccoc3=N)cc3c2CCN([C@@H](C)c2cc(OC)ccn2)C3=O)c(C(F)(F)F)n1,KYSE-70,"cell growth, inhibitor",120 h,,EC50,0.65 µM
NC(=O)Nc1sc(-c2ccc(F)cc2)cc1C(N)=O,HeLa expressing Ub(G76V)-GFP,"Ub(G76V)-GFP degradation, cycloheximide chase",12 µM,,inhibition,23%
COc1cnc2cccc(N3CCc4c(cc(Cn5ccnc5C)cc4-c4cn(C)nc4C(F)(F)F)C3=O)c2c1,MM1.S,"cell growth, inhibitor",120 h,,EC50,> 30 µM
CC/C(=N\NC(=O)NCc1cccc(O)c1)c1ccc(O)c(C)c1O,SK-OV-3,"Western blot, measured: TAZ","10 µM, 3 h, 3D gellan gum culture, unit not given",relative to: β-actin,protein level,1.57 ± 0.62
COc1cc(/C=C/C(=O)N2CCC=CC2=O)cc(OC)c1OC,MDA-MB-468,"quantitative RT-PCR, measured: FOXM1","30 µM, 8 h",relative to: untreated cells,mRNA level,65.5 ± 2.6%
CC(C)NCC(O)c1ccc(O)c(O)c1 (centres unmarked),mouse ventricular cardiomyocytes,,"dose not given, 0.131 s",,sarcomere length,1.61 µm
Cn1cc(-c2ccc(-c3cncc(Cl)c3N3CCC4(CCNC4=O)CC3)cc2)cn1,COLO 205,"gene expression, microarray, measured: PLAC8 mRNA","concentration not given, 6 h",relative to: untreated cells,log2 fold change,-2.3
Cc1[nH]c(/C=C2\C(=O)Nc3ccc(S(=O)(=O)N(C)c4cccc(Cl)c4)cc32)c(C)c1C(=O)N1CCN(C)CC1,HeLa expressing Ub(G76V)-GFP,"Ub(G76V)-GFP degradation, inhibitor, cycloheximide chase",12 µM,,inhibition,100%
COc1ccc2cc1Oc1ccc(cc1)C[C@H]1c3cc(c(OC)cc3CCN1C)Oc1c(O)c(OC)cc3c1[C@H](C2)N(C)CC3,BT-12,"cell viability, MTT","10 µM, 72 h",,inhibition,93.5%
Cc1c(C(=O)O)ccc2c3n(nc12)[C@@H]1[C@H](C3)N(CC2CC2)[C@@]2(C(=O)Nc3cc(Cl)ccc32)[C@H]1c1cccc(Cl)c1F,SNU-719,"cell proliferation, alamarBlue",,,GI50,0.00045 µM
CCn1cc(-c2cc(Cn3ccnc3)cc3c2CCN([C@H](c2cc(OC)ccn2)C2CC2)C3=O)c(C(F)(F)F)n1,ChaGo-K-1,"cell growth, inhibitor",120 h,,EC50,13.2 µM
CNc1cc2c(Nc3cccc(Br)c3)ncnc2cn1,HeLa expressing Ub(G76V)-GFP,"Ub(G76V)-GFP degradation, inhibitor, cycloheximide chase",12 µM,,inhibition,53%
O=C1CCc2c(ccc3ccccc23)O1,HBL-1,,"1 µM, 120 h",,viability,102%
Cc1cc(Nc2ncc(Cl)c(Nc3ccccc3S(=O)(=O)C(C)C)n2)c(OC(C)C)cc1C1CCNCC1,Ba/F3 TPM3-TRKA,cell viability,,,IC50,1.18 µM
Cc1cc(C2CCCCC2)n(O)c(=O)c1,BT-12,"cell viability, MTT","10 µM, 72 h",,inhibition,87.2%
CCCOc1nc(-c2cccc(O)c2)cc(-c2cc3ccccc3nc2N2CCOCC2)c1C#N,NFS-60,MTT,,relative to: WI-38 EC50 over NFS-60 IC50,selectivity ratio,0.801
Nc1ccc2cc3ccc(N)cc3nc2c1,BT-12,"cell viability, MTT","10 µM, 72 h",,inhibition,94.9%
CC(Nc1nc(N2CCCC2)nc2ccccc12)c1ccccc1 (centres unmarked),HeLa Kyoto,"RelA nuclear import, high content imaging","0.02 µM, 3 h, with: 1 µM PMA, 60 min",,cells with nuclear RelA,88.4% and 86%
Cl.O=C(Nc1ccccc1-c1cn2c(CN3CCNCC3)csc2n1)c1cnc2ccccc2n1,BT-12,"cell viability, MTT","10 µM, 72 h",,inhibition,94.4%
Cc1cccc(-c2[nH]c(CNc3ccccc3F)nc2-c2ccc3ncnn3c2)n1,MM1.S,XTT,1.8 µM,,viability,24% and 29% and 16%
Cc1cc(Nc2ncc(Cl)c(Nc3ccccc3S(=O)(=O)C(C)C)n2)c(OC(C)C)cc1C1CCNCC1,CLB-GE,"phosphoproteomics LC-MS/MS, measured: KIAA1549 phosphorylation","200 nM, 60 min",relative to: untreated,log2 fold change,-2.95
Nc1ncnc2c1c(-c1ccc(Oc3ccccc3)cc1)cn2C1CCCC1,HeLa expressing Ub(G76V)-GFP,"Ub(G76V)-GFP degradation, inhibitor, cycloheximide chase",12 µM,,inhibition,44%
CCCCN1C[C@H](O)[C@@H](O)[C@@H](O)[C@H]1CO,sample G patient fibroblasts,"GlcCer level lowering, LC-MS/MS, measured: GlcCer d18:1/16:0",216 h,,IC50,16.1 µM
Cn1cc(Nc2nccc(-c3ccc4c(c3)CN(C3COC3)CC[C@H]4NC(=O)c3cn(C(C)(C)C)nn3)n2)cn1,mouse splenic B cells,measured: GP6 signalling pathway,"30 mg/kg, IgD-activated in vivo","relative to: vehicle, direction not given",pathway activation z-score,3.36
Cc1cn([C@@H]2O[C@H](CO)[C@@H](O)[C@H]2O)c(=O)nc1N,HBL-1,,"1 µM, 120 h",,viability,97.5%
CC(C)C[C@H](NC(=O)[C@H](CCc1ccccc1)NC(=O)CN1CCOCC1)C(=O)N[C@@H](Cc1ccccc1)C(=O)N[C@@H](CC(C)C)C(=O)[C@@]1(C)CO1,BT-12,"cell viability, MTT","10 µM, 72 h",,inhibition,93.6%
CCOC(=O)CCNc1cc(N2CCc3ccccc3CC2)nc(-c2cccnc2)n1,HBL-1,,"0.1 µM, 120 h",,viability,111%
O=C(O)C[C@H](O)C[C@H](O)/C=C/c1c(C2CC2)nc2ccccc2c1-c1ccc(F)cc1,BT-12,"cell viability, MTT","10 µM, 72 h",,inhibition,93.5%
CN1CCc2c(c3ccccc3n2Cc2ccc(C(=O)NO)cc2)C1,HBL-1,,"1 µM, 120 h",,viability,98.7%
O=P(O)(O)C(O)(Cn1ccnc1)P(=O)(O)O,MDA-MB-231,AlamarBlue,"1.9 µM, 72 h",relative to: control,viability,102 ± 5%
[Cl][64Cu][Cl],BxPC-3,,37 °C,,internalized fraction,20.6 ± 2.3%
O=C(O)CCNc1cc(N2CCc3ccccc3CC2)nc(-c2cccnc2)n1,HBL-1,,"1 µM, 120 h",,viability,98.6%
O=C([O-])CN(CCN(CC(=O)[O-])Cc1cc(CCC(=O)NCCCCCC(=O)NCCCC[C@H](NC(=O)N[C@@H](CCC(=O)O)C(=O)O)C(=O)O)ccc1[O-])Cc1cc(CCC(=O)O)ccc1[O-].[68Ga+3].[OH3+],LNCaP,,"25 nM, 1 h, 37 °C",,surface-bound activity,0.76 ± 0.2 %AD/mg protein
CC(C)c1nc(CN(C)C(=O)N[C@H](C(=O)N[C@@H](Cc2ccccc2)C[C@H](O)[C@H](Cc2ccccc2)NC(=O)OCc2cncs2)C(C)C)cs1,DYT1 ΔE cells,torsinA ΔE localization,"10 µM, with: ISRIB 50 nM",,mislocalization,decreased
C=CC1=C(C)c2cc3[n-]c(cc4nc(cc5[n-]c(cc1n2)c(C)c5C=C)C(C)=C4CCC(=O)O)c(CCC(=O)O)c3C.[Zn+2],SH-SY5Y,"RNA-seq, measured: UBASH3B mRNA","5 µM, 5 h",relative to: untreated cells,fold change,2.93
Cc1ccccc1Cn1cc(-c2cccc(NC(=O)Nc3ccc(F)cc3)c2)nn1,Huh-7,"RT-PCR, measured: Bcl2 and Bax","10 µM, 72 h",,mRNA level,decreased
O=C1Nc2ccc(Br)cc2/C1=C/c1cc2c([nH]1)CCCC2,HeLa expressing Ub(G76V)-GFP,"Ub(G76V)-GFP degradation, cycloheximide chase",12 µM,,inhibition,100%
Cc1[nH]c2ccccc2c1CCNCc1ccc(/C=C/C(=O)NO)cc1,HBL-1,,"0.1 µM, 120 h",,viability,0.432%
CC(=O)O/N=C1/C(=C2/C(=O)Nc3cc(Br)ccc32)Nc2ccccc21,HeLa expressing Ub(G76V)-GFP,"Ub(G76V)-GFP degradation, cycloheximide chase",12 µM,,inhibition,9%
CCCC(CCC)C(=O)O,HBL-1,,"1 µM, 120 h",,viability,98.8%
O=C(C[C@@H](C(F)F)n1ccc(F)n1)N1CCC(O)(Cn2cnc3c(cnn3-c3ccc(F)cc3)c2=O)CC1,CHP-212 resistant cells (pooled),annexin V-PI flow cytometry,"0.1 µM, 48 h",,apoptotic cells (early plus late),15.2% and 11.3% and 11.6%

# For quick reference, copied from above:
Compound,cell line,test,conditions,how to read,measurement,value
Cc1cc(C2CCCCC2)n(O)c(=O)c1,BT-12,"cell viability, MTT","10 µM, 72 h",,inhibition,87.2%
CCCCN1C[C@H](O)[C@@H](O)[C@@H](O)[C@H]1CO,sample G patient fibroblasts,"GlcCer level lowering, LC-MS/MS, measured: GlcCer d18:1/16:0",216 h,,IC50,16.1 µM
Cc1[nH]c2ccccc2c1CCNCc1ccc(/C=C/C(=O)NO)cc1,HBL-1,,"0.1 µM, 120 h",,viability,0.432%
CC(=O)O/N=C1/C(=C2/C(=O)Nc3cc(Br)ccc32)Nc2ccccc21,HeLa expressing Ub(G76V)-GFP,"Ub(G76V)-GFP degradation, cycloheximide chase",12 µM,,inhibition,9%
